Measured values of several laboratories.
Parts stem from different laboratories: compare values within a part only. Substitutions count along the parent as printed.

Sample 1
Target: RNA binding protein fox-1 homolog 2, RRM domain, GST-SBP tag (RBFOX2, Homo sapiens, UniProt O43251-10, residues 100-194)
Technique: RNA Bind-n-Seq
Form: RNA
Matrix: in vitro
Tested at: 365 nM
Notes: natural RNA segment, single round, ends assumed
Reference: no-protein control
Direction: higher = stronger binding
Shared flanks, not repeated: GGGAGUUCUACAGUCCGACGAUC … UGGAAUUCUCGGGUGCCAA
Target sequence (chain): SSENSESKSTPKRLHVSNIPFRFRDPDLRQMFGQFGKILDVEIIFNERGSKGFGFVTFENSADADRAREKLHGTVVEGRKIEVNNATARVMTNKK
Sequence | RBNS enrichment (R)
GUGCUAUUUUACAUCUGUUCGUUAAAGUAUUAAGUAAUUUAAUGACCCCAAGAGUACCAGAUUCUGUGAGUGUGGUUGUAUACGUAAGAACUGCCCUGUUUGGAGGUUAU | 0.57
GGGAGUAUUACGUGUAAACAUGCGAACACUGCUCACACGCGAGUUUUCACAGUUAUUUCUAUCCACGCCUAUGAAUCUUUGGACGGUGAGAUCUCACAGAUGUCAGAACU | 0.535
AGGUCAUACUGGGCAACAGUGUUCUUCUUUAGAACACUGUAGGCUCUUCUCACUGGAAGAGCAGAGGGAAACCUGGCCGUCGUGUAUUCUCCUUAUGUUUAAAUGCACAG | 0.279
GUCUCUUUGAGUAUCUGGAAAUCCCUGUCAUCUGCUGUCAUUGUGAGCAAGAAUUGCCCAGCAUUUGAAUUGCCUGGACUUUGUCCUUCCCACUAGGUGUGCCAUGAUCC | 0.839
UGGAAUCCUCACUGUAUCCACUAGGAGAUUAGAAAUUAAGGUUUCUUCACUACUUCUAUGGUAGGGUUGUCUGAAAUUCCCUUUCAGGCUGUGGGUACUGGUCUUGGGUU | 0.306
GAGGCUUUUAGCUGAGUCCAGGUAUAAAUUAGCCAUAAACAGUCAAUGACCCACAGUAGUCUUUAGUAAACUGUUGAGAAAUCUGGGUAAAAGGCUGCCUUCAAUUCUAA | 0.367
UUUUCUUGCCCCAGUCAGGCUCAAGCCCUGUGGUUGUAGGAAUAAAGCCUGUGAUCUCAAGAAGUGGUGACUUGUUUUCUUAGGUAUCUGUGCCCUGAGGCUGUAUAUUC | 0.973
UCUUACUAGGAGCACAUUCUUUGCCUGCCUUCCCUUCAUCCUAUCCUCUUUGCUUGCUCUCACCUCAGGAAUUGCUUGGAUUGCUACAUGGACCCCCUGAGACUAUCAUU | 5.08
CCCAAAACUAGGGGUCCGUCAGUCUUGGAGACUAUGGGAGCCUCUGCACCCAGGGAAAAUGUUACCCUUUACAGGGGGGAAGGGUAAACCAGUAGGGAAUACAGUACAAU | 2.08
UCAGUAUUGUAGAUACUAAACCAGUUUUCCCACAUGAAAGGCAGGAAGAGUUUUGAUUCUGUCCUUUUUUACUUGACAGUUUUACUAUGACACUAGACUCAGUAGAUUUU | 0.886
GGAAGGCUUGAGCUGGGGUCCUCCUCUGCGGAGCUUGGAGAAGGUACCCAUCCUGGUCCUAUGCUGGCAGGAACACACGCGAGUGUCACUGAUUGGCCUCCUUCUGGGAU | 0.386
AAAAUCACUAUUAAUUUCUGAAUCCUUUGCCUGUGGGUAGGAAGAGAAUGGCUGCCAGUGGCUGAUGGGUCCCGGUGAUGGGAAGGGUAUCAGGUUGCUGGGGAGUUUCC | 3

Sample 2
Target: Hepatocyte nuclear factor 3-beta, forkhead domain (FOXA2, Homo sapiens, UniProt Q9Y261, residues 142-269)
Technique: protein-binding microarray
Form: double-stranded DNA, one strand shown
Matrix: in vitro
Tested at: not given
Notes: k-mer, scored over probes, only values ≥0.25
Direction: higher = stronger binding
Target sequence (chain): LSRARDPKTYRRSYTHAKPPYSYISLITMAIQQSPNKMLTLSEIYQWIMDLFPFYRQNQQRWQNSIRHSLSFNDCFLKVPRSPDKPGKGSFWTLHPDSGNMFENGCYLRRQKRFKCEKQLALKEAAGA
Sequence | E-score
TACAGTCA | 0.312
AACGTACA | 0.283
CTCATATA | 0.261
TATATCAA | 0.302
CCAATTTA | 0.267
ATTATCAC | 0.288
CATGATCA | 0.256
TGTAGACA | 0.325
CGTATATA | 0.321
TAAAAACA | 0.276
ACATTACT | 0.257
CATAAACA | 0.294
ATTAACTG | 0.271
ATAACAGA | 0.358
ACACTTAA | 0.269
AGGTCAAC | 0.262
AGTATCTA | 0.362
CGTAATTA | 0.296
GACATTAA | 0.251
AGTTGATA | 0.357
GTGTACTA | 0.255

Sample 3
Target: Histone acetyltransferase KAT6A, winged helix 2, GST fusion (KAT6A, Homo sapiens, UniProt Q92794, residues 85-181)
Technique: protein binding microarray
Form: double-stranded DNA, one strand shown
Matrix: in vitro
Tested at: not given
Notes: 8-mer, flanks averaged, mean of 2 arrays, mostly near background
Reference: not given
Direction: higher = stronger binding
Target sequence (chain): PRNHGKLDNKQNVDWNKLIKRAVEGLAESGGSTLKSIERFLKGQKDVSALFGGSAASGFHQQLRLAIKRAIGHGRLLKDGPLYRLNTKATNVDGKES
Sequence | E-score
ATACGTAT | 0.0424
AGATAGAT | -0.156
AAAATGCT | 0.174
CAGAAAAA | 0.152
ACGCCACG | -0.021
CGCTGTAC | -0.0929
ATGGACCA | -0.105
CGTGTTAG | -0.0872
TACATCTA | -0.077
ACCGCGAT | 0.131
CGCGCAAC | 0.0694
CTCCACTA | -0.00711
ACTTCTCA | -0.102
CCACCAAG | -0.0967
AGGATACC | 0.0473
CCTGCTGA | 0.0568
CAGGAACG | 0.00634
ATGAAAAC | 0.168
CCTAAAAA | 0.131
TGTAGCAA | 0.0784
CGTAGCTA | -0.0609
CGTTGGCA | 0.0319

Sample 4
Target: CCNF, cyclin fold, Cln2 fusion (human)
Technique: yeast growth competition, sequencing
Matrix: yeast
Notes: strong parent motif
Reference: not given
Direction: higher = stronger binding
Starting sequence: RB1 docking peptide (human); PKPLKKLRFDIEG; partner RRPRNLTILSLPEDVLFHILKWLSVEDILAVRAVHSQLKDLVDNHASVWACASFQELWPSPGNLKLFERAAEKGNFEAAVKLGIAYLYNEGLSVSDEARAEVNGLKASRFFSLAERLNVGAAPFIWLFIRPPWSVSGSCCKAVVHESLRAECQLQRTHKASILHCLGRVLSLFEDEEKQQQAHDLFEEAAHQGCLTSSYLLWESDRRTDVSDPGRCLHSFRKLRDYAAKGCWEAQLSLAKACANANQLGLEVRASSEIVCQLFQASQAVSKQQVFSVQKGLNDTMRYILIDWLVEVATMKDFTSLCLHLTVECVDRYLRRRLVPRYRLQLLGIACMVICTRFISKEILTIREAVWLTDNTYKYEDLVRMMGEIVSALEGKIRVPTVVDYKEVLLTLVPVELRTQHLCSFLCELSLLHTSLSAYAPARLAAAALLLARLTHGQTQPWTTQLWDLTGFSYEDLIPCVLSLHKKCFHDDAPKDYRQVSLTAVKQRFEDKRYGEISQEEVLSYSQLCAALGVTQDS
Substitution | normalised enrichment score
G13K | 1.58
D10A | 1.64
L4H | 2.1
F9Q | 0.93
F9H | 0.605
G13E | 1.91
P3A | 1.56
D10C | 1.36
D10S | 0.953
L7V | 0.871
K2Q | 0.83
G13R | 2.07
P1H | 0.655
R8T | 1.4
K2N | 0.525
R8Q | 0.677
K6A | 2.37
P1T | 1.04
I11A | 1.57
I11F | 1.34
K2M | 1.11
K2A | 1.06
D10K | 1.71
L4A | 2.67

Sample 5
Target: Interferon regulatory factor 7, full length, phosphomimetic (IRF7, Homo sapiens, UniProt Q92985, residues 1-503, S471D/S472D/S475D/S476D/S477D/S483D/S484D/S487D)
Sequence of UniProt Q92985 (whole entry, unmodified, looked up): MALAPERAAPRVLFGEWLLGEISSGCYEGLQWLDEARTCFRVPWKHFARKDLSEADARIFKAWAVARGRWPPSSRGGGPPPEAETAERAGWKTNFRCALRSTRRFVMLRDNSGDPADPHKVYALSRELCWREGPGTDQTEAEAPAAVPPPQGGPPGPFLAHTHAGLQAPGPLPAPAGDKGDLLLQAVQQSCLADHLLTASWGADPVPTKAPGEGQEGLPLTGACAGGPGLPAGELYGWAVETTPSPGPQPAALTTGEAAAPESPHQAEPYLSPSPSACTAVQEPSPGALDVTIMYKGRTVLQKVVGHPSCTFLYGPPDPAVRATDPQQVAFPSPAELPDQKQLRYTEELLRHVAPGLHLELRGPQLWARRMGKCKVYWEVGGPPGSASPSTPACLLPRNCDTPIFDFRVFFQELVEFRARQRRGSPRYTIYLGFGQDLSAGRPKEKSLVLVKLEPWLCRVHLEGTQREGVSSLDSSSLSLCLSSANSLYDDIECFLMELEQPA
Technique: protein-binding microarray
Form: double-stranded DNA, one strand shown
Matrix: in vitro
Tested at: 2200 nM top
Notes: 60-bp whole probe
Added: salmon DNA 0.4 mg/ml
Reference: random background probes
Direction: higher = stronger binding
Shared flanks, not repeated: GCCTAGCAC … GTCTTGATTCGCTTGACGCTGCTG
Sequence | fitted relative affinity
CCCTGTCTGTCCAGAAACCCGTGCTAG | 0.553 z-score
GACGATTCCAGTTTCAAGACGTGCTAG | 1.26 z-score
TTAGCTATCGGGTATCGATTAGTGCTA | 0.19 z-score
TTAGGTTTCGGTCTCTGTTAGTGCTAG | 7.73 z-score
TTAGAACTGGACTTTCGGTTAGTGCTA | 4.99 z-score
GACGGACTGCTACTGCTTACGTGCTAG | -0.0516 z-score
TCACGGCTCTAAACTCATACTGTGCTA | -0.0693 z-score
TTTGATATCAGTATCGATTAGTGCTAG | 0.402 z-score
GGATGAGTCACTTCTGGTGCTGTGCTA | -0.423 z-score
GACTGTCTCCTTCTCCTGACGTGCTAG | 1.53 z-score
GACGGACTGAACTATCGGGACGTGCTA | -0.367 z-score
TTAGAAATCAGTATCGATTAGTGCTAG | -0.502 z-score
GACGATATCGTGTTTCGAGACGTGCTA | 1.93 z-score
TTAGGTCTCGACACTGGGTTAGTGCTA | -0.322 z-score
GACGAACTGAGACTGGTGACGTGCTAG | -0.256 z-score
TTAGAACGGAGTTTCGATTAGTGCTAG | 3.57 z-score
CACGGTATCCTTATCCTGACGTGCTAG | 1.03 z-score
CTTTCTTTTATGCTCTTTCTGTGCTAG | 2.53 z-score
TTATGTTTCGACTATCGGTTAGTGCTA | 3.68 z-score
CACAGTTTGTAAATCTTTTTGTGCTAG | 0.771 z-score
TTAGATATCACTCTCGATTAGTGCTAG | 0.543 z-score
TTAGGTATCGACACTAGGTTAGTGCTA | -0.283 z-score
TCATTTTTTCTTTTATTACTGTGCTAG | 3.39 z-score
TTCTGAATGCCCTCTAACTTCGTGCTA | 0.547 z-score
CAGCCGCACAGCATGAGTTCGTGCTAG | -0.681 z-score

Some of these lines once more (sample 4):
Substitution | normalised enrichment score
D10C | 1.36
I11A | 1.57
P1H | 0.655
D10A | 1.64
G13E | 1.91
P1T | 1.04
D10K | 1.71
